Experimental data of several laboratories.
Protocols differ between the studies behind these lines.
Organism: Staphylococcus aureus

The MIC of C=C(NC(=O)C(=C)NC(=O)c1csc(C2=NC3c4csc(n4)C4NC(=O)c5csc(n5)C(C(C)(O)C(C)O)NC(=O)C5CSC(=N5)C(=CC)NC(=O)C(C(C)O)NC(=O)c5csc(n5)C3(CC2)NC(=O)C(C)NC(=O)C(=C)NC(=O)C(Cc2ccccc2)NC(=O)C(C(C)CC)NC2C=Cc3c(C(C)O)cc(nc3C2O)C(=O)OC4C)n1)C(N)=O (stereo not drawn) is reported as 0.022 µg/mL (broth microdilution; ATCC 10537 MRSA; 18 h, 37 °C).
COCCNCc1cc(N(C)C)c2c(c1O)C(=O)C1=C(O)[C@]3(O)C(=O)C(C(N)=O)=C(O)[C@@H](N(C)C)[C@@H]3C[C@@H]1C2 has an MIC of 0.5 µg/mL (microbial growth, broth dilution).
CCn1cc(/C=C/c2sc3ccccc3[n+]2CC)c2ccccc21 has an MIC of 1 µg/mL (1466).
CC(C)CNCc1cc(N(C)C)c2c(c1O)C(=O)C1=C(O)[C@]3(O)C(=O)C(C(N)=O)=C(O)[C@@H](N(C)C)[C@@H]3C[C@@H]1C2 gave an MIC of 1 µg/mL (microbial growth, broth dilution).
Oc1c(Br)ccc2cccnc12 gave an MIC of 35.7 µM (microbial growth, agar dilution; ATCC25923).
CC(C)CCOC1C(C)C2C(C=CC3C(C)C=CC=CC(C)OC(=O)C(C)C(=O)C(Cl)(Cl)C(=O)C32)CC1(C)O (stereo not drawn) gave an MIC of 1.6 µg/mL (microbial growth, broth dilution; NEWMAN).
With CCCCCCCCCCN1C(=O)/C(=N\NC(N)=S)c2cc(C)ccc21 the MIC was > 192 µg/mL (broth microdilution; 29213; 18 h, 37 °C).
The MIC of Cc1cc(/C=C2\Sc3ccccc3N2CCCN2CCCC2)c2ccccc2[n+]1C is reported as 32 µg/mL (microbial growth, broth dilution; MRSA).
For CCCCCCCc1nc2ccccc2c(=O)n1OC, the MIC was > 100 µM (broth microdilution; RN6390B).
The MIC of COc1cc(Cc2cnc(N)nc2N)cc(/C=C/C(=O)N2N=Cc3ccccc3C2C=C(C)C)c1OC (stereo not drawn) is reported as 0.06 to 0.125 µg/mL (microbial growth, broth dilution; ATCC29213; pH 7).
COCO[C@H]1[C@H](O)[C@@H](N)[C@@H](O[C@H]2[C@H](O[C@@H]3O[C@H](CO)[C@@H](O[C@H]4O[C@@H](CN)[C@@H](O)[C@H](O)[C@H]4N)[C@H]3O)[C@@H](O)[C@H](N)C[C@@H]2N)O[C@@H]1CO gave an MIC of 32 µg/mL (broth microdilution; MRSA isolate AG 042).
For CNC(CC(C)C)C(=O)NC1C(=O)NC(CC(N)=O)C(=O)NC2C(=O)NC3C(=O)NC(C(=O)NC(C(=O)O)c4cc(O)cc(O)c4-c4cc3ccc4O)C(O)c3ccc(c(Cl)c3)Oc3cc2cc(c3OC2OC(CO)C(O)C(O)C2OC2CC(C)(NC(=O)CCCC[N+](C)(C)Cc3ccccc3)C(O)C(C)O2)Oc2ccc(cc2Cl)C1O (stereo not drawn), the MIC was 64 µg/mL (agar dilution; MRSA clinical isolate MRSA4).
The MIC of COC1CCN(Cc2cc(N(C)C)c3c(c2O)C(=O)C2=C(O)[C@]4(O)C(=O)C(C(N)=O)=C(O)[C@@H](N(C)C)[C@@H]4C[C@@H]2C3)CC1 is reported as 1 µg/mL (MRSA 5, Tet M ribosome protection).
The MIC of [N-]=[N+]=NC1COC(=O)N1/N=C/c1ccc([N+](=O)[O-])o1 (stereo not drawn) is reported as 3.12 µg/mL (microbial growth, broth dilution; ATCC29213; 18 h).
The MIC of COc1ccccc1C(=O)c1[nH]c(Cl)c(Cl)c1-n1c(C(=O)c2ccccc2OC)cc(Cl)c1Cl is reported as 8 µg/mL (microbial growth, broth dilution; NCTC8325; 20 h).

A few entries again:
With CCCCCCCCCCN1C(=O)/C(=N\NC(N)=S)c2cc(C)ccc21 the MIC was > 192 µg/mL (broth microdilution; 29213; 18 h, 37 °C).
The MIC of Cc1cc(/C=C2\Sc3ccccc3N2CCCN2CCCC2)c2ccccc2[n+]1C is reported as 32 µg/mL (microbial growth, broth dilution; MRSA).
